Experimental data gathered from unrelated publications.
Each numbered part is a random draw from the data of one study; scales do not carry over between parts. Positions count from the first letter of the parent shown.

Series 1 — technique: RNA Bind-n-Seq; form: RNA; medium: in vitro; concentration: 365 nM; reference: no-protein control; reading: higher = stronger binding
Target: RNA binding protein fox-1 homolog 2, RRM domain, GST-SBP tag (RBFOX2, Homo sapiens, UniProt O43251-10, residues 100-194)
Setting: natural RNA segment, single round, ends assumed
All sequences stand within: GGGAGUUCUACAGUCCGACGAUC … UGGAAUUCUCGGGUGCCAA
Residues (chain): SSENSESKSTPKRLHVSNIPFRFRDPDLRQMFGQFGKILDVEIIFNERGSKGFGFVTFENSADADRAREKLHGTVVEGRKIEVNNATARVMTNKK
`GAGGCUCAAGGAUAGAUGAGCUCUGAGUUUCUCAGUACUCCCUCAAGACUGGACAUCUUGGUCUUUUUCUCAGGCCUGAGGGGGAACCAUUUUUGGUGUGAUAAAUACCC` — result for “RBNS enrichment (R)”: 0.521.
For `AGAAGUGCAAGCUGAUUACUCACCCCACCCUGCCUCGCCGCACCUUUCCUUUGUUUCCUUGGGUGAAUGCAGGAGCAGCAGUGGCUGCCCUUCCCACCUGGACAGUGGUG`, “RBNS enrichment (R)” read 0.955.
`UGGGGUGCCCUCCACUGCCCUCUGUUCAGUAACAGGGCCUUGCUAAUCGGGUUGUCACUCAACAAAAGUGCUUUGGAUUUAAGUUACUAUCCUGGCUUUGCCCAACCUCA` — result for “RBNS enrichment (R)”: 0.307.
`AACUGUGUCCACCCUCCCUGGUCCCUACCCCCAAGUCACAGGUGACUCAGCAGUGACCCUGUGUGCCAGGCCAGAUCCAAACUGAGAGGGAAGGUGUCGUUUUUACACUG`: “RBNS enrichment (R)” 0.303.
`ACUUGAAUUUGACAAACUGAAGCAGACAAGUGUUCUGGGUCCUCUGAUAAUUUGGGGUGUUUGGCUGUCAGCUAGGCUCAUGAAGUCCACUGUACUGUAAUGAUGGUAUU` — result for “RBNS enrichment (R)”: 0.369.
`ACUGUAAAGAGUUUGUGAAAGGUUUCAGUCUAACUGGGGUUCCUUAGCUGGAAGCCAGGGCUGGAAGCUACAGGCCUGACCUUCCUGGGUCCCACUAUCUGUUGGCAUUU` — result for “RBNS enrichment (R)”: 0.589.
For `GCCAACCCUGGGAAAUGCUAAUCAUGACCUUCACACCAAACAUUCAGAAGUAGGCUGUGUCCCAUCAGAUCAAUCUGCACCUUCCUGUGGUUGUGCAAACAUCACGGGGC`, “RBNS enrichment (R)” read 0.288.
`GCAGCAGACAGCUCCGCCCAUCCUAGGACUCCCCCAAAGGAGCAACUGUAAUGUGGGACUAACAUGGAUGUGAUGUCUUAUUUAAAAAGAAAUCAGGAUAAUUAGUAACA`: “RBNS enrichment (R)” 0.438.
`UUGGGCCGGCCCCGGUGCCCACCUGUACCCCCACCUCGCCCAUUUGGCCGCGUGCACUGAGUGUCACUUUGCUGCAGCUCGUUUCUUUCCAAUAAAAGUUUCUGUGACUU` — result for “RBNS enrichment (R)”: 0.28.

Series 2 — technique: DHFR PCA, deep sequencing; medium: yeast; together with: (+)-ABA 710 µM; reference: wild-type fitted maximum; reading: higher = stronger binding
Target: ABI1, truncated, D143A, DHFR fusion (Arabidopsis thaliana)
Setting: methotrexate growth selection, single substitutions
Starting sequence: PYL1, truncated, DHFR fusion (Arabidopsis thaliana); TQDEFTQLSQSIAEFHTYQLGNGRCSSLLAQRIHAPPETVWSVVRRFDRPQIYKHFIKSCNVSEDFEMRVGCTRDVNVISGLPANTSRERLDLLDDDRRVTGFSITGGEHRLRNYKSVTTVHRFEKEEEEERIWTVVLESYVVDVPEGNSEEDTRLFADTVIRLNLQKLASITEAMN; partner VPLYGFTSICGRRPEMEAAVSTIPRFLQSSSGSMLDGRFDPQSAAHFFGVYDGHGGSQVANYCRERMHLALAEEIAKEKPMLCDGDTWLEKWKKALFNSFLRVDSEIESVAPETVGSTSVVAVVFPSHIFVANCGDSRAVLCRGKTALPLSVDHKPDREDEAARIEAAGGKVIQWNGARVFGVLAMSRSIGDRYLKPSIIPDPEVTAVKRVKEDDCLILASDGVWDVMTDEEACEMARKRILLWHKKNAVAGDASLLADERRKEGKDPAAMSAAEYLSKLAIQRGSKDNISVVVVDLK
`L169H` — result for “relative binding score”: 6.58%.
`L156W` — result for “relative binding score”: 97.8%.
For `D75E`, “relative binding score” read 98.3%.
For `A175L`, “relative binding score” read 94.5%.
For `I105Y`, “relative binding score” read -27%.
`R132V` — result for “relative binding score”: 112%.
For `G108H`, “relative binding score” read 53.3%.
For `V62Y`, “relative binding score” read 86.7%.
`G21I`: “relative binding score” 99.1%.
`D3W`: “relative binding score” 98.9%.
For `V161K`, “relative binding score” read 5.81%.
For `V118N`, “relative binding score” read 88.5%.
Under “relative binding score”, `F66C` is recorded as 96.5%.
For `E125C`, “relative binding score” read 106%.
For `D65V`, “relative binding score” read 90.4%.
`F103Q` — result for “relative binding score”: -9.23%.
`R24T` — result for “relative binding score”: 97.7%.

Series 3 — technique: RNAcompete; form: RNA; medium: in vitro; concentration: 20 nM; setting: 7-mer, probes averaged, single round; reference: mean of 7-mers; reading: higher = stronger binding
Target: PABPC1L2, full length, GST fusion (mouse, UniProt A0ABA7IW68)
Target sequence (chain): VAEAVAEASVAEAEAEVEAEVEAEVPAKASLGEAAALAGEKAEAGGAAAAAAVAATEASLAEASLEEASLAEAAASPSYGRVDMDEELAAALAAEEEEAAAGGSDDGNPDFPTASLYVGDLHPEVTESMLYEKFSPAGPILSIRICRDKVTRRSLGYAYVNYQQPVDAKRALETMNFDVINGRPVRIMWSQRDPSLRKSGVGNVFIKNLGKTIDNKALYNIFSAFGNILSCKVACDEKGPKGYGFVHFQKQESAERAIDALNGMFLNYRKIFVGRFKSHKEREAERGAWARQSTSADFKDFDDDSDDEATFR
`GUUAUUA` has a 7-mer Z-score of -0.166.
For `GUCAACG`, the 7-mer Z-score was -0.153.
`UUCUCGG` gave a 7-mer Z-score of -0.338.
For `CAUGUAA`, the 7-mer Z-score was 0.258.
`CCCUACA` has a 7-mer Z-score of -0.262.
The 7-mer Z-score of `AGAGUAC` is reported as -0.235.
For `CGAAAUU`, the 7-mer Z-score was 0.0587.
The 7-mer Z-score of `ACCACUG` is reported as -0.199.
With `GUAGGUA` the 7-mer Z-score was -0.0283.
The 7-mer Z-score of `CCCAUCG` is reported as -0.315.
With `UGUUAUU` the 7-mer Z-score was -0.322.
`CUCUGUU` has a 7-mer Z-score of -0.412.
`GGUAGCU` gave a 7-mer Z-score of -0.0337.
With `GGCCAUG` the 7-mer Z-score was -0.0953.
`CCGGGCG` gave a 7-mer Z-score of 0.169.
The 7-mer Z-score of `UCCGGUU` is reported as -0.295.
With `CUUUAAC` the 7-mer Z-score was -0.132.

Series 4 — technique: RNA Bind-n-Seq; form: RNA; medium: in vitro; concentration: not given; reference: input RNA pool; reading: higher = stronger binding
Target: RING finger protein unkempt homolog, zinc fingers 1-6, GST-SBP tag (UNK, Homo sapiens, UniProt Q9C0B0, residues 30-357)
UniProt Q9C0B0, sequence (30-357, looked up): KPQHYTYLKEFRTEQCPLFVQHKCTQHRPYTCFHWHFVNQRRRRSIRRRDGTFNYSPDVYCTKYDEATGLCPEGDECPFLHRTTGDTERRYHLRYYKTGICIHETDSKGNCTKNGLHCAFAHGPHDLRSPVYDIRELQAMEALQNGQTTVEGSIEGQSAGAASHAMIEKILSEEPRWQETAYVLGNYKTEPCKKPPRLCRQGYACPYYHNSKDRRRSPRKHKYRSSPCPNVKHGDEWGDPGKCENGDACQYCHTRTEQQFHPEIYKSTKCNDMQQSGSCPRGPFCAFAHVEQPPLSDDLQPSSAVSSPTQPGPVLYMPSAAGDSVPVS
Setting: RNA with constant flanks, human and mouse sites, ends assumed
All sequences stand within: GGGAGUUCUACAGUCCGACGAUC … CAACAGAGGAUUGAGCAUCA
`AUACAAGUGACUACGAAAGACAUCCUAGUUACAGAGAAAGGAAAUACUGUGUUAGAAUUUUUAGUAGGACUCUUUAAACCUUUUGUGGAAAGCUAUCAGAUAAUUUGCAAGUACCUUUUG` gave a bound/input enrichment of 1.92 ratio.
`CCAUCAGUAUAUUAUAGUCAGUCACCUGCAUAUAACUCCCAGUAUCUUCUCAGACCAGCUGCUAAUGUAACUCCCACCAAGGGUCCAGUUUAUGGCAUGAAUAGGCUUCCACCCCAACAA` gave a bound/input enrichment of 0.844 ratio.
`UAUCUAAUACUAACCAAUCUGUUGGAUGUGGGUUUUAAAAAAUGUUUGCUAAACUACCCAAGUAAGAUUUACUGUAUUAAAUGGCCUUCGGGUCUGAAAAGCUUUUUUAACUUCUUGCUU` gave a bound/input enrichment of 0.166 ratio.
With `UACAUUGGUGUAAAAUCAGCCUAUGUCAGUUAUGAUGUUCAGAAGCGUACAAUUUAUUUAAAUAUCACAAACACACUAAAUAUAACAAACAAUAACUAUUACUCUGUCGAAGUUGAAAAC` the bound/input enrichment was 0.789 ratio.
For `CCCCACCCUUUUGCUUCUUUCCACCCGGGCCUGAACCCCUUGGAGAGGGAGAGACUGGCCCUGGCGGGCCCCCAGCUGCGGCCCGAGAUGAGCUACCCUGACAGACUGGCAGCCGAGCGU`, the bound/input enrichment was 0.123 ratio.

Series 5 — technique: aptamer microarray, sandwich; form: DNA with 2'F-ANA; medium: in vitro; concentration: 200 nM; together with: Cy3 exosite-II aptamer, 400 nM; reading: higher = stronger binding; strand: GGTTGGTGTGGTTGG
Target: Prothrombin, mature alpha-thrombin (F2, Homo sapiens, UniProt P00734)
Setting: whole 15-mer aptamer, many near background
`2'F-ANA at 1 2 4 6 11 12 13`: “mean fluorescence intensity” 134 a.u.
For `2'F-ANA at 2 6 7 10 13`, “mean fluorescence intensity” read 106 a.u.
`2'F-ANA at 2 4 5 6 7 10 13 15` — result for “mean fluorescence intensity”: 51.3 a.u.
Under “mean fluorescence intensity”, `2'F-ANA at 1 2 3 6 7 8 11 14` is recorded as 68 a.u.
`2'F-ANA at 1 2 3 5 8 9 10 11 14`: “mean fluorescence intensity” 49.5 a.u.
Under “mean fluorescence intensity”, `2'F-ANA at 3 5 8 10 12 13 15` is recorded as 61.8 a.u.
For `2'F-ANA at 3 4 6 7 8 14`, “mean fluorescence intensity” read 335 a.u.
For `2'F-ANA at 1 5 6 12 13 15`, “mean fluorescence intensity” read 78.8 a.u.
`2'F-ANA at 1 4 7 9 14 15` — result for “mean fluorescence intensity”: 50.4 a.u.
`2'F-ANA at 1 2 3 4 8 9 13 15` — result for “mean fluorescence intensity”: 114 a.u.

Series 6 — technique: RNA Bind-n-Seq; form: RNA; medium: in vitro; concentration: 1 µM; setting: whole 134-nt RNA, ends assumed; together with: 150 mM KCl; reference: input library; reading: higher = stronger binding
Target: Ras GTPase-activating protein-binding protein 1, RRM domain (G3BP1, Homo sapiens, UniProt Q13283)
UniProt Q13283, sequence (whole entry, looked up): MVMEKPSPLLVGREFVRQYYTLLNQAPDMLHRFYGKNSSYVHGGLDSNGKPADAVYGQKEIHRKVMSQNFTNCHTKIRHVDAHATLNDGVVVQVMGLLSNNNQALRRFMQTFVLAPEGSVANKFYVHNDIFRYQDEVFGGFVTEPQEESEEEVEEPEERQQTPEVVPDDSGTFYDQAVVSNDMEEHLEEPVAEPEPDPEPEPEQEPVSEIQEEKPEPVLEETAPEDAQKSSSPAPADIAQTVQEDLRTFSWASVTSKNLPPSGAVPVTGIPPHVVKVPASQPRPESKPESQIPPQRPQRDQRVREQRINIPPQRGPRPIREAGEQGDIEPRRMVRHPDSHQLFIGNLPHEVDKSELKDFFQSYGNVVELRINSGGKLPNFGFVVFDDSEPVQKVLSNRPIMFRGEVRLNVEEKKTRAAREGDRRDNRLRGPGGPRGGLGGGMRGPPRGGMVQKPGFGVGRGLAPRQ
All sequences stand within: GGGAGUUCUACAGUCCGACGAUC … UGGAAUUCUCGGGUGUCAAGG
For `UUUUCAAGGGGGCCCCAACUGGGGCCGCCUUGUAGCCUUCUUUGUCUUUGGGGCUGCACUGUGUGCUGAGAGUGUCAACAAGGAGAUGGA`, the log2 enrichment was -0.506.
With `CCUCAAGUCCUGUGCUACACAUCGUAUGUACCGAAUCGGGUUGGGUUGGUUGGAAAGUAUUAUGUUACGCCGUUCGGAUCUGCACUUCCA` the log2 enrichment was -0.22.
For `UCCUGUGCUACACAUCGUAUGUACCGAAUCGGGGUUUUUUUGGGGAGGGGAAAAAGGGGAAAGUAUUAUGUUACGCCGUUCGGAUCUGCA`, the log2 enrichment was 0.555.
The log2 enrichment of `UCAAGUCCUGUGCUACACAUCGUAUGUACCGAAUCGGAAAGGGGAAAGGAAAGGGAAAGUAUUAUGUUACGCCGUUCGGAUCUGCACUUC` is reported as -0.275.
`GUCCUGUGCUACACAUCGUAUGUACCGAAUCGGGGAGGGGAAAGGGGAAAAAAAGGGGAAAGUAUUAUGUUACGCCGUUCGGAUCUGCAC` gave a log2 enrichment of 0.754.
`AGUCCUGUGCUACACAUCGUAUGUACCGAAUCAAACCCAAAUUUUUUUAAAUUUAAAAAAGUAUUAUGUUACGCCGUUCGGAUCUGCACU` has a log2 enrichment of -0.812.
`UGCUUCAUCGCCUUGUGCUCCUGCCCCUGGGAGCUGUGGAUCCCAGAUCCAGAUGACAGCCCACCUUGCUGGCAGGAUGCGCCAAUCCCC` gave a log2 enrichment of -0.396.
The log2 enrichment of `UUUUUCCAGAGCUCACAACGACCUGGGGCUGAGGACAAUGUCCUCAAUGAGAUCGUGAGUAUCUUGCAGCCCACCCAGGUCCCUGAGCAG` is reported as -0.204.
`CAAGUCCUGUGCUACACAUCGUAUGUACCGAAUCGGGAGGGAGGGAAAAAAAGGGAAAGUAUUAUGUUACGCCGUUCGGAUCUGCACUUC` gave a log2 enrichment of 0.461.
`CACAGACAACACGCACCCACACAGACACAGAGGGAAGGGGUUGGGAUGGGGACAGGGUGCACAGCAGGGCGGGGUAGGACAAAAGCCCCU` gave a log2 enrichment of -0.0962.
For `CACAGACAACACGCACCCACACAGACACAGAGGGAAGGGGUUGGGAUGGAAACAGGGUGCACAGCAGGGCGGGGUAGGACCCCAGCCCCU`, the log2 enrichment was -0.124.

Repeated from above (series 1):
For `AGAAGUGCAAGCUGAUUACUCACCCCACCCUGCCUCGCCGCACCUUUCCUUUGUUUCCUUGGGUGAAUGCAGGAGCAGCAGUGGCUGCCCUUCCCACCUGGACAGUGGUG`, “RBNS enrichment (R)” read 0.955.
`GAGGCUCAAGGAUAGAUGAGCUCUGAGUUUCUCAGUACUCCCUCAAGACUGGACAUCUUGGUCUUUUUCUCAGGCCUGAGGGGGAACCAUUUUUGGUGUGAUAAAUACCC` — result for “RBNS enrichment (R)”: 0.521.
`UGGGGUGCCCUCCACUGCCCUCUGUUCAGUAACAGGGCCUUGCUAAUCGGGUUGUCACUCAACAAAAGUGCUUUGGAUUUAAGUUACUAUCCUGGCUUUGCCCAACCUCA` — result for “RBNS enrichment (R)”: 0.307.
`UUGGGCCGGCCCCGGUGCCCACCUGUACCCCCACCUCGCCCAUUUGGCCGCGUGCACUGAGUGUCACUUUGCUGCAGCUCGUUUCUUUCCAAUAAAAGUUUCUGUGACUU` — result for “RBNS enrichment (R)”: 0.28.
